Published values of several laboratories.
A part holds a random share of what one study measured. Positions count from the first letter of the parent shown.

Series 1 — method: RNA Bind-n-Seq; form: RNA; medium: in vitro; tested at: 200 nM; setting: whole 134-nt RNA, ends assumed; added: 150 mM LiCl; reference: input library; reading: higher = stronger binding; library: 7-deaza-guanosine replaces G
Target: Fragile X messenger ribonucleoprotein 1, C-terminal low-complexity region (Fmr1, Mus musculus, UniProt P35922)
All sequences stand within: GGGAGUUCUACAGUCCGACGAUC … UGGAAUUCUCGGGUGUCAAGG
Sequence	log2 enrichment
ACCAUGCAGGUGGGCAUCUUUGGGAAGUGGGGCAAGGGGGGGAUAGGGAGGGGGGUAACACUUUGGGAGCAGGUGGUCCCAGGUCGUUUC	1.6
UAUUGAUGCAUUUGACCCUACACUGGCUCCAGCCACAGGAACUCCUGUUGUCGGGGGACUAACCUAUCGAGAAGGCAUGUAUAUUGCUGA	0.963
UGGGAGGUGGAUUUUGUUUAUUUUUUUAGCUCAUUUCCAGGGGUGGGAAUUUUUUUUUAAUAUGUGUCAUGAAUAAAGUUGUUUUUGCAA	0.994
AGUCCUGUGCUACACAUCGUAUGUACCGAAUCGGGGAAAGGGGAAAGGGGUUUGGGGAAAGUAUUAUGUUACGCCGUUCGGAUCUGCACU	-1
UGGCCCUGGUGGCAUGCGGGGAGGAAGAGUUGGCCUCAUGGAUCGUGGUGGUCCCGGUGGAAUGUUCAGAGGUGGCCGUGGUGGAGACAG	-0.238
UGCGUGCUUGUGUCCUGGAGCUGGAAGAGCGGCUGAGCACGCAGGAGGGCUUGGUGCAAGAGCUUCAGAAAAAACAGGUGGAAUUGCAGG	-0.485
CAAGUCCUGUGCUACACAUCGUAUGUACCGAAUCGGAGGAAAAAGGUUUUUUUGGAAAGUAUUAUGUUACGCCGUUCGGAUCUGCACUUC	-1.25
GCAGGAAGUAAAAACAAAUGGAAAUGCUUCGGAUAGUGGCAGGGGUGGGGGUUGCUAAGGAAAGGGUGGGAUGGGAGGGGGUAAAGAGUU	0.37
CCUGUGCUACACAUCGUAUGUACCGAAUCGGCCCCCCCGGCCCCCCCGGGGCCCCCCCGGAAAGUAUUAUGUUACGCCGUUCGGAUCUGC	1.23
UUCCCCUGGAGGGCGCCUCCAUCCUUGGAGGCCUAGUGCCGUCGGAGAGAGAGCGGGAGCCGCGGACAGAGACGCGUGCGCAAUUCGGAG	-1.17
CCUGUGCUACACAUCGUAUGUACCGAAUCGGGUUUUUUGGGUUUUUUGGGGUUUUUUGGGGAAAGUAUUAUGUUACGCCGUUCGGAUCUG	-0.759

Series 2 — Sequence: B1 (RING1 RING domain); method: yeast two-hybrid; medium: yeast; setting: mostly zero background; reference: not given; reading: higher = stronger interaction
B1: RING1 RING domain (UniProt Q06587); chain SPRSLHSELMCPICLDMLKNTMTTKECLHRFCSDCIVTALRSGNKECPTCRKKLVSKRSLR
target	lacZ reporter activity
UBE2C UBC core domain (UniProt O00762)	0
UBE2E3 UBC core domain (UniProt Q969T4)	0
UBE2S UBC core domain (UniProt Q16763)	0
UBE2Z UBC core domain (UniProt Q9H832)	0
UBE2D4 UBC core domain (UniProt Q9Y2X8)	0
UBE2D2 UBC core domain (UniProt P62837)	0
BIRC6 UBC core domain (UniProt Q9NR09)	0
UBE2T UBC core domain (UniProt Q9NPD8)	0
UBE2I UBC core domain (UniProt P63279)	0
UBE2D1 UBC core domain (UniProt P51668)	0
UBE2J1 UBC core domain (UniProt Q9Y385)	0
UBE2Q1 UBC core domain (UniProt Q7Z7E8)	0
UBE2B UBC core domain (UniProt P63146)	0
UBE2L3 UBC core domain (UniProt P68036)	0
UBE2G1 UBC core domain (UniProt P62253)	0
UBE2J2 UBC core domain (UniProt Q8N2K1)	0

Series 3 — target: JUN, bZIP domain (human); method: DHFR protein complementation; medium: yeast; reference: wild-type JUN-FOS pair; reading: higher = stronger binding
Setting: single substitutions, most at no-binding floor
Starting sequence: JUN, bZIP domain (human); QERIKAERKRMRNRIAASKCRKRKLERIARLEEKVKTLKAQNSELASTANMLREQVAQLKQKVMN; partner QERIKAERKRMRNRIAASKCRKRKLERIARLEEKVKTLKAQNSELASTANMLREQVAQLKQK
Change	binding fitness
A57D	-0.166 natural log
R53F	-0.983 natural log
A57G	-0.503 natural log
Q41N	-0.819 natural log
E54R	-0.422 natural log
A49T	-0.168 natural log
T37K	-0.176 natural log
A49Q	-0.778 natural log
L59C	-1.08 natural log
E44Q	-0.3 natural log
S47F	-0.282 natural log
K36I	-0.467 natural log
T48N	-0.568 natural log
S47W	-0.302 natural log
I28P	-1.19 natural log
S43M	-0.184 natural log
K34S	-0.147 natural log
E54D	-0.385 natural log
A40S	-0.321 natural log
A29D	-0.552 natural log
Q55W	-1.05 natural log
A29H	-0.242 natural log
K34T	-0.0203 natural log
Q41G	-1.11 natural log
S43N	-0.195 natural log

Series 4 — method: DHFR PCA, deep sequencing; medium: yeast; added: (+)-ABA 2500 µM; reference: wild-type fitted maximum; reading: higher = stronger binding
Target: ABI1, truncated, D143A, DHFR fusion (Arabidopsis thaliana)
Setting: methotrexate growth selection, single substitutions
Starting sequence: PYL1, truncated, DHFR fusion (Arabidopsis thaliana); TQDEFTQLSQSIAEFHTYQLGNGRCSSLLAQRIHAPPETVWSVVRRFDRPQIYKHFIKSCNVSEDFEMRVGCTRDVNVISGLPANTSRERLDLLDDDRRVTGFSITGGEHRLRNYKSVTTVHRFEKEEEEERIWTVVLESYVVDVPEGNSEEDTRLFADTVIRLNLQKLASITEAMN; partner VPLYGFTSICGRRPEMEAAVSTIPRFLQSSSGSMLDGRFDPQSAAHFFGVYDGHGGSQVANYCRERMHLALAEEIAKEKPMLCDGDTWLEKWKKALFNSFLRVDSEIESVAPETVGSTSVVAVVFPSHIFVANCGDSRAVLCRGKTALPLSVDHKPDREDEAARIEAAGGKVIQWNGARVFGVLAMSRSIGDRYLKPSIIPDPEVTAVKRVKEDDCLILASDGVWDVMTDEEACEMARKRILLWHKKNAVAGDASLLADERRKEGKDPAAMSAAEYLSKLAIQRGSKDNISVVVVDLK
Change	relative binding score [%]
T39L	98
H16W	37.9
I79Y	102
H55W	88.4
I162C	87.8
V161W	65.7
S140I	0.0645
T173C	100
R99V	59.5
E174K	90.2
N165T	59.7
G81Y	67.9
I12E	77.4
R132M	101
S42K	108
V70P	95.8

Series 5 — target: CCNF, cyclin fold, Cln2 fusion (human); method: yeast growth competition, sequencing; medium: yeast; setting: weak parent motif; reference: not given; reading: higher = stronger binding
Starting sequence: MASTL docking peptide (human); PMIAKNLMCELDE
Change	normalised enrichment score
E10G	-0.165
A4H	-0.226
L7Y	-0.191
K5F	-0.601
N6C	0.263
C9A	0.341
M8D	0.229
E10V	0.543
K5W	-0.246
I3D	-0.348
K5V	-0.284
A4V	-0.105
M2C	-0.134
C9F	1.36
N6Y	-0.272
I3L	0.153
N6M	-0.00832
E10L	0.978
L7P	-0.32
M2P	0.348
D12K	0.166
C9H	-0.379
A4G	-0.195
D12I	-0.497
C9I	-0.121

Some of these lines once more (series 5):
Change	normalised enrichment score
N6Y	-0.272
L7P	-0.32
M2C	-0.134
K5F	-0.601
E10L	0.978
K5V	-0.284
E10G	-0.165
C9F	1.36
D12K	0.166
D12I	-0.497
A4H	-0.226
I3D	-0.348
E10V	0.543
